Assay results gathered from unrelated publications.
Parts stem from different laboratories: compare values within a part only.

Series 1
Target: Histone acetyltransferase KAT6A, winged helix 1, GST fusion (KAT6A, Homo sapiens, UniProt Q92794, residues 1-85)
Technique: protein binding microarray
Form: double-stranded DNA, one strand shown
Sample: in vitro
Concentration: not given
Notes: 8-mer, flanks averaged, mean of 2 arrays, mostly near background
Baseline: not given
Direction: higher = stronger binding
Residues (chain): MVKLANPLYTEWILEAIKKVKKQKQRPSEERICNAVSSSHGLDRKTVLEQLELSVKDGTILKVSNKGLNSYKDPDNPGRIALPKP
`CAGGCCTG` has an E-score of -0.289.
`GAGCTACC` has an E-score of -0.0369.
With `ATTCGCCA` the E-score was -0.0907.
The E-score of `GGGCTGTA` is reported as -0.147.
With `AGAACAAT` the E-score was -0.21.
The E-score of `ACTCTTGC` is reported as -0.214.
`ACCCTGTA` gave an E-score of -0.13.
For `AATGACGT`, the E-score was -0.0749.
`AGACGGCC` gave an E-score of 0.376.
The E-score of `GTGCACCA` is reported as -0.184.
With `CGGTACAA` the E-score was 0.214.
`ATCAGACA` has an E-score of -0.13.
With `GAACCCCC` the E-score was 0.102.
`GGCATGAA` has an E-score of 0.02.
With `GGTGTCCA` the E-score was -0.147.
`GAAAAAAA` has an E-score of -0.122.
`CAGACCAC` gave an E-score of -0.182.
For `CTTTGGCC`, the E-score was 0.0197.
For `CTAAGTTA`, the E-score was -0.0667.

Series 2
Target: RNA binding protein fox-1 homolog 2, RRM domain, GST-SBP tag (RBFOX2, Homo sapiens, UniProt O43251-10, residues 100-194)
Technique: RNA Bind-n-Seq
Form: RNA
Sample: in vitro
Concentration: 365 nM
Notes: natural RNA segment, single round, ends assumed
Baseline: no-protein control
Direction: higher = stronger binding
Residues (chain): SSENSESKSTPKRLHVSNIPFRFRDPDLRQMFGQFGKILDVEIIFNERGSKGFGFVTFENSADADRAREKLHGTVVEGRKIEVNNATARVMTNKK
`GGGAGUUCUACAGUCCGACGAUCAAAGGAAGGUAACGAUUGCUGGGAUUCCAGGAGAGAGACUUUAAGACUUUGUCUGAGCUCAUGACAACAUAUUGCAAAUGGCCGGGCCACUCGUGGCCAGACGGACAGCAUGGAAUUCUCGGGUGCCAA` — result for “RBNS enrichment (R)”: 0.816.
Under “RBNS enrichment (R)”, `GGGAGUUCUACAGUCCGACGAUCAUGACCUUUAUCAUCAACUCUGAUUCGAUCCAUGCGUUUUUUUUAUACUAAGCAAUAACUUUACGAUCAACAGAAGAAAUUUUAAAACAGAGUCUCCUUUUCCCAUCCUUUGGAAUUCUCGGGUGCCAA` is recorded as 0.436.
Under “RBNS enrichment (R)”, `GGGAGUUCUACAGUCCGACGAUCCUCAGCAAUUACUCACGCCGUCACAUGUGCCCACAGUAGCGGGCUCCGCGGCGUGGCUCCUGCUGCCAUCAGCUGCCUUCUCUGCUGAAGUCCAACUCAAGUCGGAGAGAUGGAAUUCUCGGGUGCCAA` is recorded as 0.227.
`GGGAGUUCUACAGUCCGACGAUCUCUACCUCCUAAAAAUGUAGCUUAUUUUUAGGAUUUAAAUCACUAAGUAAAUAAGUAUCCUUGCCAAGUGAUCAUGAGUGUCAUUUUUGUUCUAAGACUAAUAUUUUUAGUGGAAUUCUCGGGUGCCAA`: “RBNS enrichment (R)” 0.381.
Under “RBNS enrichment (R)”, `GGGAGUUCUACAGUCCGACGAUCCUGUGUUGUAGCAGUGAUGUCAGUCCAUUGAUUGUCUUUAGAGAGUUAAUGUUACAAAAAAGAAUUCUUAAUAAUCAGACAAACAUGAUCUGCUGAGGACACAUGCGCUUUGGAAUUCUCGGGUGCCAA` is recorded as 0.374.
Under “RBNS enrichment (R)”, `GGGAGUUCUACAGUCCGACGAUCGUGUGACUUUCUAGAGAAGCCAGGACACCCCUGAGCCUUUCCUGGGAACUCCUAAGGAAGUCACAGGUUCACACCGUGGGGAUUUUCAGGAUAGCAUGGAGACCAGAGAAUGGAAUUCUCGGGUGCCAA` is recorded as 1.99.
`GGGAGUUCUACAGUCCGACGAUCGAUGCUCAGCAGGGAGGAGGGAAAGCCUGUAUAGCUAGCCUGACAUUUUGUUUCUUGUACAAUAUCUCAUGUGACCCAAACUUGAGACUCCAAACAGUACCUUUGCUUUGUGGAAUUCUCGGGUGCCAA`: “RBNS enrichment (R)” 0.595.
`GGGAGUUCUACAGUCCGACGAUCCUUUGAAGGCCAGGUAUAUGUGUACCAGUGCUCUUCAAAGGGAGAACCAUUAAAACCAACAUGGAAUGCAGGGACUUCGCCUUAUAAGAUUUCCAGUUUUAAAACUGCCCUGGAAUUCUCGGGUGCCAA` — result for “RBNS enrichment (R)”: 0.481.
Under “RBNS enrichment (R)”, `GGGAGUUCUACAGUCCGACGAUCGGCCUGAUGAUGGUGGGUGGGUGGGAUGAGUACCCCCUCAAACCCUGCCCUCCUUAGACCUGAGGGACCCUUCGAGAUCAUCACUUCCUUGCCCCCAUUUCACCCAUGGGUGGAAUUCUCGGGUGCCAA` is recorded as 0.183.
`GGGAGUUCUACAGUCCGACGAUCCAGCUUCAUUGGGCUGCUUCCUCUGAAGGAAUCCUUGAGAGUCAGUGAAUGUUCUAUCAGCAUGAGUGACCAGGGCAAGGACCUGCUGGACAGUGUGUGAUUGGUUCACCUGGAAUUCUCGGGUGCCAA`: “RBNS enrichment (R)” 3.93.
`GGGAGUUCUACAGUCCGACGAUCGCGGGAGCAAGCCCCAGGUUGUGACAGGUGCAGGUAGACAACGCCCAUAAACAGAGAUGGUCCUGAACUCUGGAGAGAUCCUUCCCUGAUCCUUUCGGACGACUACUUGGUGGAAUUCUCGGGUGCCAA` — result for “RBNS enrichment (R)”: 0.335.
`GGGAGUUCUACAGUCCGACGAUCACUAGAUUAGGACUAUUACAUCCAAGGCACUGGGGGAUUCUGGUGGGCUCCAAAUUAGCUUUACUGAUUGAACAUCCACAGAGAUGGAGGCAUUUAAUACAAAACCAGGAUGGAAUUCUCGGGUGCCAA` — result for “RBNS enrichment (R)”: 0.336.

Series 3
Target: Fragile X messenger ribonucleoprotein 1, C-terminal low-complexity region (Fmr1, Mus musculus, UniProt P35922)
Technique: RNA Bind-n-Seq
Form: RNA
Sample: in vitro
Concentration: 200 nM
Notes: whole 134-nt RNA, ends assumed
With: 150 mM LiCl
Baseline: input library
Direction: higher = stronger binding
Library: 7-deaza-guanosine replaces G
For `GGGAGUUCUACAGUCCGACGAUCGUCCUGUGCUACACAUCGUAUGUACCGAAUCGGGUUUUUGGGAAAAAGGGUUUUUGGGAAAGUAUUAUGUUACGCCGUUCGGAUCUGCACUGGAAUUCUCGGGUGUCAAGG`, the log2 enrichment was -2.62.
With `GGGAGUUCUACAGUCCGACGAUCGUCCUGUGCUACACAUCGUAUGUACCGAAUCGGGGUUUUUGGUUUUUGGUUUUUGGGGAAAGUAUUAUGUUACGCCGUUCGGAUCUGCACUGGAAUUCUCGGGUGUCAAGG` the log2 enrichment was -1.56.
`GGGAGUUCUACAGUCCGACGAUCUUCUCUGCCGGCUCAGAGGAGAGGAGACGCCGUGAGCGGGACGACCAGAUGUACCGAGAGCGGCUGCGCACCUUGCUGGUCAUCGCGGUUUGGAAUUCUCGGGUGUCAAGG` gave a log2 enrichment of -2.11.
For `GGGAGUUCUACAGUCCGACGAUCUCCUGUGCUACACAUCGUAUGUACCGAAUCGGGGAAAAAAAGGGGAAAAAGGGGAGGGGAAAGUAUUAUGUUACGCCGUUCGGAUCUGCAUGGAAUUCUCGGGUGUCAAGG`, the log2 enrichment was -0.463.
For `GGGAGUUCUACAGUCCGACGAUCCACAGACAACACGCACCCACACAGACACAGAGGGAAGGGGUUGGGAUGGGGACAGGGUGCACAGCAGGGUGGGGUAGGACCCCAGCCCCUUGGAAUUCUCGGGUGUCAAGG`, the log2 enrichment was 0.601.
For `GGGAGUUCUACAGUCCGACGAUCUAGUGAUGGUCCUAAAUAGCAUGAGUGUCAGCUGGAGCGCCCGGAUCCAGAUUUUCUUAACCUUUUGCAAGCUCACAGCAAUUCUGAUAAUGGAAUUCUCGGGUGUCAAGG`, the log2 enrichment was -2.53.
With `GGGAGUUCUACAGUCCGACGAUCUCCUGUGCUACACAUCGUAUGUACCGAAUCGGGGUUUGGGGAAAAAAAGGGGUUUGGGGAAAGUAUUAUGUUACGCCGUUCGGAUCUGCAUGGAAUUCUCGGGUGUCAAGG` the log2 enrichment was -0.836.
With `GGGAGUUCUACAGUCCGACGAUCUUUAGACAGAAACAAGAAGCAACAGAGUCCCUUAAGUGCCAAGAGGAACUUCGAGAGCGCCUUCAUGAGGAGUCCAGGGCCAGAGAACAGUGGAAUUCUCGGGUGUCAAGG` the log2 enrichment was -0.603.
With `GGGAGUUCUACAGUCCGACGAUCCUCAAGUCCUGUGCUACACAUCGUAUGUACCGAAUCGGAAAGGUUUGGUUUGGAAAGUAUUAUGUUACGCCGUUCGGAUCUGCACUUCCAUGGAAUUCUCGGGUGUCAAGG` the log2 enrichment was -0.575.
The log2 enrichment of `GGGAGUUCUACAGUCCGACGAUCUCCUCAAGUCCUGUGCUACACAUCGUAUGUACCGAAUCGGGCGGGGCGGCGGAAAGUAUUAUGUUACGCCGUUCGGAUCUGCACUUCCAGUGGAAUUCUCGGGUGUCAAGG` is reported as 0.477.
`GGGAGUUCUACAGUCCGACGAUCUGGGAGGUGGAUUUUGUUUAUUUUUUUAGCUCAUUUUCAGGGGUGGGAAUUUUUUUUUAAUAUGUGUCAUGAAUAAAGUUGUUUUUGAAAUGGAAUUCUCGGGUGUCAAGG` gave a log2 enrichment of 1.11.

Series 4
Target: Prothrombin, mature alpha-thrombin (F2, Homo sapiens, UniProt P00734)
Technique: aptamer microarray, sandwich
Form: DNA with 2'F-ANA
Sample: in vitro
Concentration: 200 nM
Notes: whole 15-mer aptamer, many near background
With: Cy3 exosite-II aptamer, 400 nM
Direction: higher = stronger binding
Strand: GGTTGGTGTGGTTGG
Under “mean fluorescence intensity”, `2'F-ANA at 4 5 6 9 11 13 15` is recorded as 52.3 a.u.
For `2'F-ANA at 2 3 7 11 13 14 15`, “mean fluorescence intensity” read 432 a.u.
`2'F-ANA at 3 7 8 9 10 12 13 14 15` — result for “mean fluorescence intensity”: 432 a.u.
`2'F-ANA at 3 5 6 13 14` — result for “mean fluorescence intensity”: 94.5 a.u.
`2'F-ANA at 1 2 3 4 5 8 9 12 15` — result for “mean fluorescence intensity”: 129 a.u.
`2'F-ANA at 1 2 3 5 8 9 11 12 13`: “mean fluorescence intensity” 79.7 a.u.
`2'F-ANA at 1 4 7 9 11`: “mean fluorescence intensity” 89.8 a.u.
Under “mean fluorescence intensity”, `2'F-ANA at 2 4 8 11 13 14 15` is recorded as 90.5 a.u.
Under “mean fluorescence intensity”, `2'F-ANA at 4 6 8 10 11 12 15` is recorded as 86.3 a.u.
`2'F-ANA at 1 4 5 6 8 9 10 15` — result for “mean fluorescence intensity”: 47.5 a.u.
Under “mean fluorescence intensity”, `2'F-ANA at 1 2 3 4 6 8 9 10 11 13 14` is recorded as 51 a.u.
Under “mean fluorescence intensity”, `2'F-ANA at 1 5 10 13 14` is recorded as 44.1 a.u.
`2'F-ANA at 3 4 11 15`: “mean fluorescence intensity” 620 a.u.
`2'F-ANA at 2 3 4 5 7 9 11 12 15`: “mean fluorescence intensity” 253 a.u.
Under “mean fluorescence intensity”, `2'F-ANA at 2 5 7 10 11 12 14 15` is recorded as 45 a.u.
For `2'F-ANA at 4 8 9 10 11 12 13`, “mean fluorescence intensity” read 74.9 a.u.
Under “mean fluorescence intensity”, `2'F-ANA at 1 3 4 6 9 10 11 12` is recorded as 73.2 a.u.
`2'F-ANA at 1 2 5 6 7 10 11 12` — result for “mean fluorescence intensity”: 77.2 a.u.
`2'F-ANA at 1 4 5 6 7 10 11 12 13 15` — result for “mean fluorescence intensity”: 46.8 a.u.
`2'F-ANA at 2 4 8 10 12 13 14 15` — result for “mean fluorescence intensity”: 59.7 a.u.
Under “mean fluorescence intensity”, `2'F-ANA at 4 5 6 9 10 12 14 15` is recorded as 47.3 a.u.
`2'F-ANA at 1 2 3 5 6 7 8 9 10 11 12 13 14`: “mean fluorescence intensity” 51.1 a.u.

Excerpt of the above (series 1):
`AGACGGCC` gave an E-score of 0.376.
The E-score of `GTGCACCA` is reported as -0.184.
With `CGGTACAA` the E-score was 0.214.
`ATCAGACA` has an E-score of -0.13.
